Assay results from different studies.
A part holds a random share of what one study measured. Substitutions count along the parent as printed.

Series 1
Target: CDC34 UBC core domain (UniProt P49427)
Technique: yeast two-hybrid
Sample: yeast
Setting: mostly zero background
Baseline: not given
Direction: higher = stronger interaction
B1: TRIM72 RING domain (UniProt Q6ZMU5); chain APGLLHQELSCPLCLQLFDAPVTAECGHSFCRACLGRVAGEPAADGTVLCPCCQAPTRPQALST
B2: ARK2C RING domain (UniProt Q6ZSG1); chain EGEESDTDEKCTICLSMLEDGEDVRRLPCMHLFHQLCVDQWLAMSKKCPICRVDIETQLGAD
B3: CUL9 RING domain (UniProt Q8IWT3); chain AQAVPVRPDHCPVCVSPLGCDDDLPSLCCMHYCCKSCWNEYLTTRIEQNLVLNCTCPIADCPAQPTGAFIR
B4: UHRF2 RING domain (UniProt Q96PU4); chain CGGDPEKKCHSCSCRVCGGKHEPNMQLLCDECNVAYHIYCLNPPLDKVPEEEYWYCPSCKTDSSEVVKAGER
Target sequence (chain): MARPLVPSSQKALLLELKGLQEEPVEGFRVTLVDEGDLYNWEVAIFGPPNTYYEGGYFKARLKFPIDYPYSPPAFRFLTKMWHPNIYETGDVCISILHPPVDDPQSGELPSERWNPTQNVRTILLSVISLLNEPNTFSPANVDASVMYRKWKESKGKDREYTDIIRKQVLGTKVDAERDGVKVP
Sequence	lacZ reporter activity
VTLSLTLPITCHICLGKVRQPVICINNHVFCSICIDLWLKNNSQCPACRVPITPENPCK (OBI1 RING domain (UniProt Q5W0B1))	0
EDEVSDNSAECVVCLSDVRDTLILPCRHLCLCNTCADTLRYQANNCPICRLPFRALLQIR (RNF157 RING domain (UniProt Q96PX1))	0
B1 (TRIM72 RING domain)	0
B2 (ARK2C RING domain)	0
B3 (CUL9 RING domain)	0
KTLSRFGIQPCSICLGDAKDPVCLPCDHVHCLRCLRAWFASEQMICPYCLTALPDEFSPA (RNF213 RING domain (UniProt Q63HN8))	0
B4 (UHRF2 RING domain)	0

Series 2
Target: ABI1, truncated, D143A, DHFR fusion (Arabidopsis thaliana)
Technique: DHFR PCA, deep sequencing
Sample: yeast
Setting: methotrexate growth selection, single substitutions
With: (+)-ABA 0.11 µM
Baseline: wild-type fitted maximum
Direction: higher = stronger binding
Starting sequence: PYL1, truncated, DHFR fusion (Arabidopsis thaliana); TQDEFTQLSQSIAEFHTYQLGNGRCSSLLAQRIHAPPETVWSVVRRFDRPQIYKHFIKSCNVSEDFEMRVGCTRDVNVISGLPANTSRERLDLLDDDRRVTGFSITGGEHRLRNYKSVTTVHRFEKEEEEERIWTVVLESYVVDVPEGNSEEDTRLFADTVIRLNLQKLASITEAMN; partner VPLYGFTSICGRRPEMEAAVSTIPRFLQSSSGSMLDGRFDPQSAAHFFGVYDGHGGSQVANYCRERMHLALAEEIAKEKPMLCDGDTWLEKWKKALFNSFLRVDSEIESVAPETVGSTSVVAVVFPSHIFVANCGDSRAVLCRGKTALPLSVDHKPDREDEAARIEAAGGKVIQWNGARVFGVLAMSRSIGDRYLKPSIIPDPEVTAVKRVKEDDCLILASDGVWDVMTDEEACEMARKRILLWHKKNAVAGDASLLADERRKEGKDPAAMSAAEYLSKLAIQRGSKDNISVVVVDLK
Change	relative binding score [%]
L93S	-0.544
H55T	28.2
N77P	4.06
E151P	43.1
E125H	40.1
I172Q	-14.1
R99P	-9.55
D97L	5.61
F5G	4.47
M68P	8.01
F5K	4.99
G108L	1.65
M68W	-4.24
P50D	-6.16

Series 3
Target: CCNB3, cyclin fold, Cln2 fusion (human)
Technique: yeast growth competition, sequencing
Sample: yeast
Setting: weak parent motif
Baseline: not given
Direction: higher = stronger binding
Starting sequence: WEE1 docking peptide (human); HKTFRKLRLFDTP; partner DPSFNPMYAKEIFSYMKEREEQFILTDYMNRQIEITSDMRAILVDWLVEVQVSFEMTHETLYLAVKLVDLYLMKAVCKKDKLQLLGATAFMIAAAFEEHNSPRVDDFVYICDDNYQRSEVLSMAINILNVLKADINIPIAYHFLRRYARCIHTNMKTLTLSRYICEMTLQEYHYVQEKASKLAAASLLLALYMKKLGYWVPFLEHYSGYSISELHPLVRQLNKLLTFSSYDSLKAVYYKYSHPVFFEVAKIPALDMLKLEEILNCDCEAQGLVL
Change	normalised enrichment score
F4H	0.325
F10G	-0.387
R8E	0.728
D11T	-0.0686
L9I	-0.0594
T12R	0.395
L7I	0.973
H1E	0.278
L7V	-0.0799
T3I	-0.104
K2M	-0.138
H1F	-0.17
L9A	0.363

Series 4
Target: RING finger protein unkempt homolog, zinc fingers 1-6, SBP tag (UNK, Homo sapiens, UniProt Q9C0B0, residues 30-357)
Chain of UniProt Q9C0B0 (30-357, looked up): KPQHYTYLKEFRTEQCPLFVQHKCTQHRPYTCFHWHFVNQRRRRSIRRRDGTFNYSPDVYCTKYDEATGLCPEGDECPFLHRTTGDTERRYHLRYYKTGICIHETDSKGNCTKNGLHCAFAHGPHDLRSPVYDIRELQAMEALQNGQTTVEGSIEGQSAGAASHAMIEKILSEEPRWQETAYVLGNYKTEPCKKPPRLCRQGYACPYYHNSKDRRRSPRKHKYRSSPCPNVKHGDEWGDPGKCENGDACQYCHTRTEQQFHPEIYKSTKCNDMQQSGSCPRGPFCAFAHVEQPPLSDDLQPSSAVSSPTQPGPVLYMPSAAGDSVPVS
Technique: RNA Bind-n-Seq
Form: RNA
Sample: in vitro
Tested at: 100 nM
Setting: RNA with constant flanks, vertebrate orthologous sites, ends assumed
Baseline: input RNA pool
Direction: higher = stronger binding
Oligonucleotide	bound/input enrichment [ratio]
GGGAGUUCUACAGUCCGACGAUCACACUUACAUUGUGGCAAAUAGUCAACAUGGAAGUAGACCGGCUCUGCUGAUUUGAAAUUUAGAUUUUUUUAAUUAUGUACUGGGGACAGGUUUUUGUCGCUUUACAUUGCUUCCUAGUUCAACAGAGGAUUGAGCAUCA	4.52
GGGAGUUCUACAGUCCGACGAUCAAGCCCUGUGAAGGUCUACUGACCGCUCACUAGAGUCUGCUAUCUGUAAACACUUCUGUUUAGUCCUAUCAUUGUAUAAUUGAUGUUCUUUAAAACUGUCGAUGUAAAACAGGGCUUAUGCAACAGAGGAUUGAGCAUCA	0.339
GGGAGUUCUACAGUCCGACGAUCCCGGUCUUCCACUUAGGCUCAGCCUCAGAUCUAUAGGAUUUAUGACAAAUGUAUUAUAUCUAGUUAAGUUGAGUUCAUUAUUUUUUUAUUGGCCUGUAAAUAAAGAUGGCAUCUUCUACACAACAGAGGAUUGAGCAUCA	1.2
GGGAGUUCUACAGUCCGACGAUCCAACUCAAUGGUUGAGGGUUCAGAGCUCAAAAAGGUUCGCUCCAACUCUAGAAUUUACCAUAGGUAUUUUUUAUUGGAUGCCGACAUGCAGAGCCUGAGGUGGGAACCAUCAAAGAAGGACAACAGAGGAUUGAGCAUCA	0.265
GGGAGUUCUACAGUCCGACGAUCAAUUUCUUGUAUACAUGAUCUAGUCCUGUAUUAUUAUUAUUAUUUUCUUACACGAUUGUUUGUCAGUAUGUCUGUGUCUGUCACAUUUCCUUCUCAGGCGAAGGGCUAGAGUUUAAAAAACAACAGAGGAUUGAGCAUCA	1.65
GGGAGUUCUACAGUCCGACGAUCGGCAUCUGAUUGGAUGAAGACCGUCCCGAGUUACAACCAAACAAACAGUUCCAUGGACUUUAGAAAUUACAUGAUGAGAGAUGAGAAUCUGGAACCACUGCCAAAAAACUGGGAAAUGGCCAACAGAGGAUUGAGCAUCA	0.503
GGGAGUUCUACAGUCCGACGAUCUGUGUCUGUACAGGGCAUCCUCUGUACUAGUUUAUUGUGGUUAUAAAAUAAUUAGUAAAACAGCUUACAUUUGUAUUUAUUUUCUAUUCCAUACUCUGUGCCCCAUGGUUUGUUUUUUUUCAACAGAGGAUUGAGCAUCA	0.724
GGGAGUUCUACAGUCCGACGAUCAAAAACUGUUGUCUGAAAUGUCUACCCAGAGAAGUGUUGCCUUAUAAAUAUCAAAUAAUUUAGUUAGGUUCUUCUUAGGUAUUAAAUUACAUGUCAAGCAUUUAAAGUGAAUUUGAGGUGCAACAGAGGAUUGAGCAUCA	0.286

Series 5
Target: Interferon regulatory factor 7, full length, phosphomimetic (IRF7, Homo sapiens, UniProt Q92985, residues 1-503, S471D/S472D/S475D/S476D/S477D/S483D/S484D/S487D)
Technique: protein-binding microarray
Form: double-stranded DNA, one strand shown
Sample: in vitro
Tested at: 2200 nM top
Setting: 60-bp whole probe
With: salmon DNA 0.4 mg/ml
Baseline: random background probes
Direction: higher = stronger binding
Shared flanks, not repeated: GCCTAGCAC … GTCTTGATTCGCTTGACGCTGCTG
Construct (chain): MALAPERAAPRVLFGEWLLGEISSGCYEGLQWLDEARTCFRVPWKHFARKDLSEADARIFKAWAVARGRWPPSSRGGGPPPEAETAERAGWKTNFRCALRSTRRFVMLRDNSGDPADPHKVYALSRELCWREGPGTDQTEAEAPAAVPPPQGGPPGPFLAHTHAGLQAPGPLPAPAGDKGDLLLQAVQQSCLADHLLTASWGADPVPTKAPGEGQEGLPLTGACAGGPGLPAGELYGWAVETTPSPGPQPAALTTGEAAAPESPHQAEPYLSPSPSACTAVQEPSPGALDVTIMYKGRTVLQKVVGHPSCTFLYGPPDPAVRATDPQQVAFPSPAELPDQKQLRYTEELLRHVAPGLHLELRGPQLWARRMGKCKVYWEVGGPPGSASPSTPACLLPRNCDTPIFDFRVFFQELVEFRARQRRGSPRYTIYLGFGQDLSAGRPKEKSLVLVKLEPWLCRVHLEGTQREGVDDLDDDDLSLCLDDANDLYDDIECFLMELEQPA
Oligonucleotide	fitted relative affinity [z-score]
TTAGGTATTGGGTTTCGGTTAGTGCTA	3.88
TTAGAACTGGTGTATCGATTAGTGCTA	-0.0163
TCAGATTGGTTGAACATACTGTGCTAG	0.547
TTAGATTTCAGTCTCGATCAGTGCTAG	0.758
GTGGTTCTGCTTCTTAGCGCGTGCTAG	1.18
GACTAACTGAGTATCGAGACGTGCTAG	-0.109
GACGGTTTCAGGACTGGGGACGTGCTA	1.05
TCATGACTCTGCCTCTAACTGTGCTAG	1
CCTCTTCTGGATCTCAGACTGTGCTAG	1.46
TTAGATTCCAGTATCGATTAGTGCTAG	0.855

A few entries again (series 2):
Change	relative binding score [%]
N77P	4.06
E151P	43.1
E125H	40.1
